# Measured values pooled from the literature.
# A part holds a random share of what one study measured. Substitutions count along the parent as printed.

# Series 1
# Target: RNA binding protein fox-1 homolog 2, RRM domain, GST-SBP tag (RBFOX2, Homo sapiens, UniProt O43251-10, residues 100-194)
# Technique: RNA Bind-n-Seq
# Molecule type: RNA
# Matrix: in vitro
# Concentration: 365 nM
# Notes: natural RNA segment, single round, ends assumed
# Reference: no-protein control
# Direction: higher = stronger binding
# Constant ends, left off below: GGGAGUUCUACAGUCCGACGAUC … UGGAAUUCUCGGGUGCCAA
# Target sequence (chain): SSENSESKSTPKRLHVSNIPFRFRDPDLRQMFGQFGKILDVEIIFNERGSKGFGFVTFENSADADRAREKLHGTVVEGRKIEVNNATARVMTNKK
Sequence,RBNS enrichment (R)
UUCCCGGAUCCUCCUCGCUGGGCCCGAGUGUGGCAGCAGCUCGGGUCGGGGCCUUGGUUUCCAGAGGGUCCGGGCUGGUUUGACUGCUUUAACUAGGAUUAGUUCAGUGG,0.442
AUAAACCACCGUCGUGAGGCAUUUACCUGUUGGAUGGAAGGUAGACAGCAACAAGAUUUUAAUCACCUGGUCACCAGACCCUCACGGCCCAUAUCCAAUUCGAAUUUCAG,0.393
UGGAAAACCAAAUUUGUAAUAUCAUUGUAUUUUUUAUUAAAAGUUUUGUAAUAAAUUUCUAAAUUAUCUUCUGGUGUGGGACUUUAACAAACAUCCUAUUUUUAGUUUCA,1.38
UUUCCUUGGAGCACUGAGCACCAUUUGGAAGCUUGAGAGAAACCAAAAUUAAAGAGAGAAAGAGAGAGCGUGCACGCUCCUGCUUUGUCUUUCCUGUGUGGGCUGUUUGC,9.24
UAAACUUUCUUGCAUCAGUAUUCUAAAUUGAGCAAACUGAAAGAUUUUCAUCAGGAAAGGAGCACUGUGGGAAGAGCCCAGUAUUCACAUUUUUUCCCCAUUUUUCAGAA,0.657
UUGAUAAGCUAUGUUGUUGCACUUUAAACAUUUAAAUUAUACAAUCAUCAACCCCCAACCCUCUGGGUCUCUUGGAUUUCAGAGUGAAAACUUGAUUGGCAUUGAGAGGU,3.3
UGGCUGAGCAGCCGCUUUUUAGACGUUAUCAUUUUGCCUCAUGUUGGAGGACUUUAUGGAAUUUAAGAAAUACAUUUUGUGUGCAUAUUGUUUCAUAGCAAGAAUUCGUU,0.605
ACCCCUCCUUCCUGUCUGGUUAGGAAGCCCAAUGCACCCUCUGAGGUCAUCACUUCUGUUCUAUGUUAUUAUCUAGGACUCAACGAGUCAUCUCAAACCAUAUUCUGUGA,0.346
UUUGGGAGUUUAUGCAAGGUGGCUGGGCUUUUAAGAACAACAUGGACAUCAGAAAUCACCAGAACCUUCAGGAUCGCCUGCAGGCAGCCCAUCUACUGCUGGCCAGGAGC,0.714
UGCUUAAAAUGCAGAUUGGCUUUAAAAAGAAAAGAAAACAAACACACAUAUGCAAUGUUUUAAGGUCUGUCUUAAGAAGCUUUGGCCAAAUUGGGAUCCUAACCUAAGAU,0.27
CUUAAUGUCCCUAUCUGUGGUGUGUGUGCACUUGCUGUGACCUUCCCAGUAGUCCCUCCAUGACAGAAAACACUCCCAUGAGUCUCGAGGGAAAGCCAAGAAUAAAUGUC,0.677
GGACGAGUCCUUUCCAGCCUGCAAGAUUGAGUUUGAAUGACCUGCGCUCCCUUCCCUAAGGAUCCACUCCUACAGUUCAUUUAGAGAAUGGCUACUGCUGAGUCCUCUGG,3.64

# Series 2
# Target: Transcription factor Sp1 (SP1, Homo sapiens, UniProt P08047, residues 1-785, full length assumed)
# Chain of UniProt P08047 (whole entry, looked up): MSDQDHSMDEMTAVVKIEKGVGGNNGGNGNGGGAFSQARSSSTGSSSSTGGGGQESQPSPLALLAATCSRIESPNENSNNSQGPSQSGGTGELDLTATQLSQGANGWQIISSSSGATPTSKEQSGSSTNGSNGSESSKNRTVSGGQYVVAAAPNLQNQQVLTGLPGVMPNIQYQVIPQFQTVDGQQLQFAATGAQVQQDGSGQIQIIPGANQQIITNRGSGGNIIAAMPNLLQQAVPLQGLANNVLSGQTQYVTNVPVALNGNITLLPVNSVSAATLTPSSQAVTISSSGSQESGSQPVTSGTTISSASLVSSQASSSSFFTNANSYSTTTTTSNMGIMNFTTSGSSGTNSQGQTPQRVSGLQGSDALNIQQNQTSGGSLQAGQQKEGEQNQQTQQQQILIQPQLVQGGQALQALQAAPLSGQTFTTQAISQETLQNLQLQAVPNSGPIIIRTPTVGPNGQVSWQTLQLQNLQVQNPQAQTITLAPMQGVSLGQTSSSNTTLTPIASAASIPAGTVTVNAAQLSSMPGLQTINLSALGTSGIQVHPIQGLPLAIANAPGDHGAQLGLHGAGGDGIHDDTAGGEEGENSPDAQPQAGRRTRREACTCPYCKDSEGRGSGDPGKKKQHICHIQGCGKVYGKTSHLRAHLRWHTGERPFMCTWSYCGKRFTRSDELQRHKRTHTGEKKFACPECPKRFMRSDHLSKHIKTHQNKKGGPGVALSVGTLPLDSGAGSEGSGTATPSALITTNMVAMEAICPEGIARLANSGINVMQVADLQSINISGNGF
# Technique: protein-binding microarray
# Molecule type: double-stranded DNA, one strand shown
# Matrix: in vitro
# Concentration: not given
# Notes: k-mer, scored over probes, only values ≥0.25
# Direction: higher = stronger binding
Sequence,E-score
ACTAACAT,0.265
ACCCATAT,0.321
GGTAAACA,0.258
AACCCCTC,0.328
CACGTGGA,0.259
CTATGCAC,0.252
AAGGGGGC,0.318
AGGGGATC,0.257
CCCACACG,0.253
AACCCCTA,0.275
CTCCCACC,0.368
CACGCCTC,0.378
ATGGGGGC,0.346
CCCACCGA,0.283
TTATTGAA,0.286
CACCCACA,0.301
CATGGGGA,0.316
CCCCACCG,0.252
CACATGTA,0.293
CGCCCTCC,0.339
CTATCTCC,0.279
CCCACCAA,0.273
CCTATCAC,0.266
CACCCCCC,0.314
AGGGGTAG,0.319

# Series 3
# Target: Interferon regulatory factor 5, full length, phosphomimetic (IRF5, Homo sapiens, UniProt Q13568-2, residues 1-514, K96S/S451D/S453D/S456D/S462D)
# Technique: protein-binding microarray
# Molecule type: double-stranded DNA, one strand shown
# Matrix: in vitro
# Concentration: 250 nM
# Notes: 60-bp whole probe
# With: salmon DNA 0.4 mg/ml
# Reference: random background probes
# Direction: higher = stronger binding
# Constant ends, left off below: GCCTAGCAC … GTCTTGATTCGCTTGACGCTGCTG
Sequence,log fluorescence [z-score]
GACGATATCAGTCTCGAGTCGTGCTAG,1.48
CTGGAATCAATTTATTGACCGTGCTAG,-0.101
GACGGTTTCGGGTATCGGGTCGTGCTA,8.16
GACGGAATCGACTATCGGGACGTGCTA,1.97
GACGATATCAGTATCTAGACGTGCTAG,1.35
TTAGGTCTCGGTAACGGTTAGTGCTAG,0.617
GACGGTTACCTACTGCTGACGTGCTAG,-0.212
TTAGGACTGCTTTTCCGTTAGTGCTAG,0.135
GACGGACGGGGTATCGGGACGTGCTAG,0.0765
GACGGACTGGACACTCGGGACGTGCTA,-0.608
TCATTAATAAGGTTTCCAACTGTGCTA,0.448
CACGATCTCAGTTTCGAGACGTGCTAG,4.75
TAAGGTCTCGGTCTCGGTTAGTGCTAG,0.573
TCAATTTTGGTTTTCCTACTGTGCTAG,2.53
TCACGTCTCTATCAAAAACTGTGCTAG,0.62
GACGGTATCCTACTGCTAACGTGCTAG,-0.0264
AGCAGTTTCTCAACCACTTTGTGCTAG,0.907
GACGGTCTCCTACCGCTGACGTGCTAG,-0.315
ATTTAAGTTTCACTCTGCATGGTGCTA,6.79
ATAGATATCAGTTTCGATTAGTGCTAG,10.5
TTAGGACTGCGGACTGGGTTAGTGCTA,-0.181
GGTACAAACTTGTAATTATAGTGCTAG,0.168
GACGGTCTCCTTATCATGACGTGCTAG,0.044

# Series 4
# Target: CEP164, C-terminal peptide (human)
# Technique: DHFR complementation, deep sequencing
# Matrix: yeast
# Notes: single substitutions, model-inferred values
# Reference: wild type
# Direction: higher = weaker binding
# Starting sequence: PDZK1, PDZ domain 2 (human); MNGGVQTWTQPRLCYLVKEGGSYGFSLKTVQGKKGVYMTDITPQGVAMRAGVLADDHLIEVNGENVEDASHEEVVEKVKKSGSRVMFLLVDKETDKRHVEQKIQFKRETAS; partner HNRVKVYRF
Substitution,binding free energy change [kcal/mol]
D68Q,0.107
D55Q,0.582
F25N,1.61
C14K,0.683
Q104D,-0.153
K106S,-0.2
N62E,1.32
Q6A,-0.0203
K102P,-0.00129
N2G,-0.195
V90Q,-0.189
E64I,0.0244
N62D,0.726
H71K,1.98
M48H,-0.258
R84T,-0.0461
S111V,-0.113
S83P,-0.115
Y15Q,0.0581
D95H,-0.211
M38W,1.18
G4D,3.94e-07
G32W,0.2
K28N,0.889

# Series 5
# Target: PABPC1L2, full length, GST fusion (mouse, UniProt A0ABA7IW68)
# Technique: RNAcompete
# Molecule type: RNA
# Matrix: in vitro
# Concentration: 20 nM
# Notes: 7-mer, probes averaged, single round
# Reference: mean of 7-mers
# Direction: higher = stronger binding
# Residues (chain): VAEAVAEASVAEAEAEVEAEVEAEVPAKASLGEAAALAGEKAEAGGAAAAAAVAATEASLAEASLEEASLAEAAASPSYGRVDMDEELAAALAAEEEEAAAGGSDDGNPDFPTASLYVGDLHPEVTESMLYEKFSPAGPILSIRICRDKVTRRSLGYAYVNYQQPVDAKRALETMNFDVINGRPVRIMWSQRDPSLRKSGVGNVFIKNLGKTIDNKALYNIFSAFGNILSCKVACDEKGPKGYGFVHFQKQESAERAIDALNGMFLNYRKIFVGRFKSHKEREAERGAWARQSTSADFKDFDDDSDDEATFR
Sequence,7-mer Z-score
CCGGCGC,-0.353
ACUCAUG,-0.0283
AAAGUGC,1.5
UUGGCAU,-0.115
CAGUUAA,-0.0337
UUGAUAA,0.109
CUACCCU,-0.447
UCACAAG,-0.104
UCUUUUC,-0.362
UCUUUCA,-0.322
GGGCUAG,0.26
GGCGCCA,-0.132
UUAUUAG,-0.117
GCGAAUC,0.00436
GCAGAUC,0.0334
UACAUUA,-0.103
AGAAGAU,0.0932
ACUAACU,-0.0246
AUCACUC,-0.137
UAUGACG,-0.0881
CACGCUG,-0.0899

# Series 6
# Target: Histone acetyltransferase KAT6A, both winged helices, GST fusion (KAT6A, Homo sapiens, UniProt Q92794, residues 1-181)
# Technique: protein binding microarray
# Molecule type: double-stranded DNA, one strand shown
# Matrix: in vitro
# Concentration: not given
# Notes: 8-mer, flanks averaged, mean of 2 arrays, mostly near background
# Reference: not given
# Direction: higher = stronger binding
# Residues (chain): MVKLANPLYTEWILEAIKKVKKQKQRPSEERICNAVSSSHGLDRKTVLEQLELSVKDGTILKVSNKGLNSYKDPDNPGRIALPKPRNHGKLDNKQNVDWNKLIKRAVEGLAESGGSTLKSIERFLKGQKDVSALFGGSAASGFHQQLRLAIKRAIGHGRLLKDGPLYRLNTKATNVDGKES
Sequence,E-score
CGCGGGCA,0.313
CGGGGTAC,0.149
AAGGCGTC,0.114
ATCGTAGC,-0.0391
CCTGACCG,0.143
ATCGGCTA,0.0652
GAACACCC,-0.0933
ACTGTGAC,-0.0609
GTTTTGAA,-0.0915
AAACACTG,0.056
CGAATGCC,0.1
ACTATTTG,-0.0999
CCTAATAG,-0.108
ATCGTCTA,-0.0523
CGCAAAAC,0.275
GAGGACCA,-0.146
ACAGTCCC,0.0415
AAATAAGC,-0.0716
GTCGGCAA,0.249
